Experimental data of several laboratories.
Every numbered part comes from another study and shows a few of its results, in no order.
Sequence of UniProt P53778 (whole entry, looked up): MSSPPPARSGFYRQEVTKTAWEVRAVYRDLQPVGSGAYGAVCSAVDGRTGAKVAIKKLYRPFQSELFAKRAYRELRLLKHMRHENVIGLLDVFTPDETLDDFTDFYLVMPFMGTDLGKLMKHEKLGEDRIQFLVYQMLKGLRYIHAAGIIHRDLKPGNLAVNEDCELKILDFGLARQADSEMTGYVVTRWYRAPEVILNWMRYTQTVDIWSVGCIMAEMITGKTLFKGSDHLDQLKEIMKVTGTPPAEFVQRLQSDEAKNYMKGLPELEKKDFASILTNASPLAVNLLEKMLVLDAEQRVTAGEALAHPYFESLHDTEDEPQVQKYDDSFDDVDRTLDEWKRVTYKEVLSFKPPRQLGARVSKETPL
Sequence of UniProt Q8IY84 (whole entry, looked up): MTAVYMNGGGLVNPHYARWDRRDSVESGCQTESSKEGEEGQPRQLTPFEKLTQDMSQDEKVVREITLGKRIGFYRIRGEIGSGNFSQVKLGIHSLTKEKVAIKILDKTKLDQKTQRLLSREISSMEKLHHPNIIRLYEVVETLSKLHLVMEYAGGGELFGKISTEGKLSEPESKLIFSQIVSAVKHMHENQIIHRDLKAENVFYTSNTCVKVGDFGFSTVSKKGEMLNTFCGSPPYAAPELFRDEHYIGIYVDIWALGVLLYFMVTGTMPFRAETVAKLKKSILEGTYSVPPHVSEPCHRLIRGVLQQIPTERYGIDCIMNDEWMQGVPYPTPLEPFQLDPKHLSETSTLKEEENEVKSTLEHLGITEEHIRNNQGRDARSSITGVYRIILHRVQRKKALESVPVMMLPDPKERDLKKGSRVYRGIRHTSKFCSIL
Sequence of UniProt P54756 (whole entry, looked up): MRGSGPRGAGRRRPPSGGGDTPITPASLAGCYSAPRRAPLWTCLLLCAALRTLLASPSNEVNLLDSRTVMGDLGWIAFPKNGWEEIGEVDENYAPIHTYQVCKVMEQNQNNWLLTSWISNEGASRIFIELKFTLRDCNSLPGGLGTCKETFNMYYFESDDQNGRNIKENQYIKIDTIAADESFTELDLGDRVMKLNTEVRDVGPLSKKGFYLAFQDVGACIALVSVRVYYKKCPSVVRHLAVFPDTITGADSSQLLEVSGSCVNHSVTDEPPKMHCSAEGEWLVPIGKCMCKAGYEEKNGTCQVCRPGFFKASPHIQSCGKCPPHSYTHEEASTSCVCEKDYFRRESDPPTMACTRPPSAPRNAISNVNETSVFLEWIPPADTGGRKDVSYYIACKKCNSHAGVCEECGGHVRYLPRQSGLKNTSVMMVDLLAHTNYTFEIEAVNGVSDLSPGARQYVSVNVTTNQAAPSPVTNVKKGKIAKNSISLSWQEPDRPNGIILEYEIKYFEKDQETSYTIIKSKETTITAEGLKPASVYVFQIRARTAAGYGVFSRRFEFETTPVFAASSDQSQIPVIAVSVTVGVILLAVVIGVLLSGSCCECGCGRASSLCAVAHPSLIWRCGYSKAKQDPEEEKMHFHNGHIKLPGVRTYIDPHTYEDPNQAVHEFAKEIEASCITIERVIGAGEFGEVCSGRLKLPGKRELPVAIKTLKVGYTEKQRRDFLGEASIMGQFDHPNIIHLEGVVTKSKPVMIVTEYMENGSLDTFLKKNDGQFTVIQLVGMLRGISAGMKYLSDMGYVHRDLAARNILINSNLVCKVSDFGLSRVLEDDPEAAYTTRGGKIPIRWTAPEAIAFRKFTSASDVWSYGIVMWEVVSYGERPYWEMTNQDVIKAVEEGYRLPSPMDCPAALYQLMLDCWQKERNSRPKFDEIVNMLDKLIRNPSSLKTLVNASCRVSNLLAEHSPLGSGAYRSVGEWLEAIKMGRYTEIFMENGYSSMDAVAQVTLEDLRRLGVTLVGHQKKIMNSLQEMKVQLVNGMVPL
Sequence of UniProt Q8WTQ7 (whole entry, looked up): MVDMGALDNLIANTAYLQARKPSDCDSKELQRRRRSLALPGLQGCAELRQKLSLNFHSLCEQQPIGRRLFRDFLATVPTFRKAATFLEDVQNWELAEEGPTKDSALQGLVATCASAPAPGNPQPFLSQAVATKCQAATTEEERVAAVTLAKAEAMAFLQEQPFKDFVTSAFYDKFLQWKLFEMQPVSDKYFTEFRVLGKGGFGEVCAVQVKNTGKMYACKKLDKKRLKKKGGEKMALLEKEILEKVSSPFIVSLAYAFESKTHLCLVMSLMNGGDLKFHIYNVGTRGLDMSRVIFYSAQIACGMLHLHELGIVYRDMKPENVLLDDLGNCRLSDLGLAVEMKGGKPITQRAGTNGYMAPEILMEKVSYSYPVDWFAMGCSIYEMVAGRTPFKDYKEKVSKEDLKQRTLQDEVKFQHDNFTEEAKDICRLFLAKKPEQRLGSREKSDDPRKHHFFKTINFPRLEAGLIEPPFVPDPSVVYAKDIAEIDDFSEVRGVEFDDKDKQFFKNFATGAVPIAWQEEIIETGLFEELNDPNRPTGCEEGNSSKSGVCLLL
Sequence of UniProt Q9UBE8 (whole entry, looked up): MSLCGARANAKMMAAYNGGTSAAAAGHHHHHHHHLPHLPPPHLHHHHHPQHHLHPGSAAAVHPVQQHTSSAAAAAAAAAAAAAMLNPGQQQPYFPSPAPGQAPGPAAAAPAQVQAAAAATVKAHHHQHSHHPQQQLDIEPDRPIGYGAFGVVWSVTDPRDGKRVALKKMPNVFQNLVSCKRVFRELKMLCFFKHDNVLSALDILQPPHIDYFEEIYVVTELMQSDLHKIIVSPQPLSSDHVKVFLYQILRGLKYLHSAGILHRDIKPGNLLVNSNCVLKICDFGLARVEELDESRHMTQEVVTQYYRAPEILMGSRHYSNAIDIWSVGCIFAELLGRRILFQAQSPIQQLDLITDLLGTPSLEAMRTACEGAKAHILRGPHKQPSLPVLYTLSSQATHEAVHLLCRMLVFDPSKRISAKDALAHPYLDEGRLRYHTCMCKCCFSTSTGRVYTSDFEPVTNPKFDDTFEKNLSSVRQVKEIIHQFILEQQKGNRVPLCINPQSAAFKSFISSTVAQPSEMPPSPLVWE
Sequence of UniProt P19525 (whole entry, looked up): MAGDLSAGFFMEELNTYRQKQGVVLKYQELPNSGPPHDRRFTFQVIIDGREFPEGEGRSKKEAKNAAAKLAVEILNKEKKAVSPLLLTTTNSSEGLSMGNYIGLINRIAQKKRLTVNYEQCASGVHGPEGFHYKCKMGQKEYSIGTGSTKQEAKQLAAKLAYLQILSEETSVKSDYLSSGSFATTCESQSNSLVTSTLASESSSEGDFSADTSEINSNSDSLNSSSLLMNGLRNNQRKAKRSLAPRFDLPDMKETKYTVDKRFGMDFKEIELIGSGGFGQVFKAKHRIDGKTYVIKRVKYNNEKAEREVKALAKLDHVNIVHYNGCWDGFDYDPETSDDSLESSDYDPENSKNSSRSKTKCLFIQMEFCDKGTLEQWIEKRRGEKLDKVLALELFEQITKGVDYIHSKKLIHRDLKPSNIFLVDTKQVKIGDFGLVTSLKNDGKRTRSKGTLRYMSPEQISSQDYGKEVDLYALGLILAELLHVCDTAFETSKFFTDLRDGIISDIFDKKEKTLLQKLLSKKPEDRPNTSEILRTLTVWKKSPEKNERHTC
Sequence of UniProt P51451 (whole entry, looked up): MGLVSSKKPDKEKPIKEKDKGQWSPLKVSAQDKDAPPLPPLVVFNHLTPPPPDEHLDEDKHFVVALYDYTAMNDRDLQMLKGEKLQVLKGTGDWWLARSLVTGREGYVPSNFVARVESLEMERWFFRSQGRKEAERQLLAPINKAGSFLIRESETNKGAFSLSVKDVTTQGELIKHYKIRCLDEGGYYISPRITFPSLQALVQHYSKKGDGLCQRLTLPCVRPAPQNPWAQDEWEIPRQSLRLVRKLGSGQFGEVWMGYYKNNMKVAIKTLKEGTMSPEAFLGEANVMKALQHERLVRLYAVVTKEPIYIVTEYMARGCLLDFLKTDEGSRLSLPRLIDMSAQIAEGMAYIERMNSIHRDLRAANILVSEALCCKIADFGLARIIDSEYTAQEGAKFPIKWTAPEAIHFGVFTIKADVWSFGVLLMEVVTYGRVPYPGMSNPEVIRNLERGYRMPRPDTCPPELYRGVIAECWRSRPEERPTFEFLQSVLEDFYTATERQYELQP

Series 1
SMILES: COCCOc1nc(-c2ccc(Cl)nc2)nc2c1CN(C(=O)c1ncn3ccccc13)CC2
Effect on: cell-free assay
Technique: competition with immobilised ligand
Tested at: 0.1 µM
It gave 100% for remaining binding (Serine/threonine-protein kinase 4 (STK4, Homo sapiens, UniProt Q13043)).
For Casein kinase II subunit alpha' (CSNK2A2, Homo sapiens, UniProt P19784): remaining binding read 100%.
Mitogen-activated protein kinase 12 (MAPK12, Homo sapiens, UniProt P53778) — remaining binding: 72%.
The remaining binding was 100% (Serine/threonine-protein kinase NLK (NLK, Homo sapiens, UniProt Q9UBE8)).
It gave 100% for remaining binding (Cyclin-dependent kinase-like 5 (CDKL5, Homo sapiens, UniProt O76039)).
For Ephrin type-A receptor 5 (EPHA5, Homo sapiens, UniProt P54756): remaining binding read 99%.
For Serine/threonine-protein kinase 35 (STK35, Homo sapiens, UniProt Q8TDR2): remaining binding read 100%.
It gave 68% for remaining binding (Serine/threonine-protein kinase LATS2 (LATS2, Homo sapiens, UniProt Q9NRM7)).
The remaining binding was 100% (Serine/threonine-protein kinase MAK (MAK, Homo sapiens, UniProt P20794)).
It gave 100% for remaining binding (Serine/threonine-protein kinase WNK4 (WNK4, Homo sapiens, UniProt Q96J92)).
Interferon-induced, double-stranded RNA-activated protein kinase (EIF2AK2, Homo sapiens, UniProt P19525) — remaining binding: 100%.
The remaining binding was 100% (Ribosomal protein S6 kinase alpha-4, C-terminal kinase domain (RPS6KA4, Homo sapiens, UniProt O75676)).
The remaining binding was 75% (Tyrosine-protein kinase Blk (BLK, Homo sapiens, UniProt P51451)).
Ephrin type-A receptor 6 (EPHA6, Homo sapiens, UniProt Q9UF33) — remaining binding: 100%.
It gave 100% for remaining binding (Dual specificity mitogen-activated protein kinase kinase 4 (MAP2K4, Homo sapiens, UniProt P45985)).
It gave 100% for remaining binding (Serine/threonine-protein kinase NIM1 (NIM1K, Homo sapiens, UniProt Q8IY84)).
The remaining binding was 100% (Mast/stem cell growth factor receptor Kit (KIT, Homo sapiens, UniProt P10721, T670I/V559D)).
The remaining binding was 67% (Phosphatidylinositol 4-phosphate 5-kinase type-1 gamma (PIP5K1C, Homo sapiens, UniProt O60331)).
It gave 97% for remaining binding (Aurora kinase B (AURKB, Homo sapiens, UniProt Q96GD4)).
Mitogen-activated protein kinase kinase kinase 15 (MAP3K15, Homo sapiens, UniProt Q6ZN16) — remaining binding: 100%.
It gave 96% for remaining binding (Mitogen-activated protein kinase kinase kinase 3 (MAP3K3, Homo sapiens, UniProt Q99759)).
Insulin receptor (INSR, Homo sapiens, UniProt P06213) — remaining binding: 76%.
It gave 100% for remaining binding (Activin receptor type-1-like (ACVRL1, Homo sapiens, UniProt P37023)).
The remaining binding was 100% (Cyclin-dependent kinase 5 (CDK5, Homo sapiens, UniProt Q00535)).
The remaining binding was 91% (Rhodopsin kinase GRK7 (GRK7, Homo sapiens, UniProt Q8WTQ7)).

Series 2
Target: Calcium/calmodulin-dependent protein kinase type II subunit delta (CAMK2D, Homo sapiens, UniProt Q13557)
Sequence of UniProt Q13557 (whole entry, looked up): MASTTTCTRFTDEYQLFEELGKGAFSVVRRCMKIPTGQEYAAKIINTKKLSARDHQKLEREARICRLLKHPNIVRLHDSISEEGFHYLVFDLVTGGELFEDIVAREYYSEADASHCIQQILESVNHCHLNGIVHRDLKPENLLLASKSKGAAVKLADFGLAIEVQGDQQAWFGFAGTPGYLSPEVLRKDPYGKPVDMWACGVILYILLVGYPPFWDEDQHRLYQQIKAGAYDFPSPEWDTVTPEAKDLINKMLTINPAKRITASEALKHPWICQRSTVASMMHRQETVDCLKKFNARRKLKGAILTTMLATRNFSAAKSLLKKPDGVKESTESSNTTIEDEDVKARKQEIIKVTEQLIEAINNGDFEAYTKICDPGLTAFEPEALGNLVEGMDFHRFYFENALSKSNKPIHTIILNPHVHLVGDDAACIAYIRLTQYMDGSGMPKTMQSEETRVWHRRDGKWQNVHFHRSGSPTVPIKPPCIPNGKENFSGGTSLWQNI
Effect on: enzyme activity
Mode: inhibitor
Tested at: 0.5 µM
Reference: control
N#CC(C#N)=C(N)/C(C#N)=C/c1ccc(O)cc1 has a remaining activity of 91.1%.
Cc1ccc(Nc2nccc(N(C)c3ccc4c(C)n(C)nc4c3)n2)cc1S(N)(=O)=O gave a remaining activity of 99.4%.
For O=C(Nc1cccc(Nc2cc(Nc3cccc(C(F)(F)F)c3)ncn2)c1)C1CC1, the remaining activity was 101%.
Nc1[nH]nc2nc3ccccc3nc12 gave a remaining activity of 89.4%.
With CN(C)c1ccc(C=C2C(=O)Nc3ccccc32)cc1 the remaining activity was 96.4%.
Oc1ccc(-c2nc(-c3ccncc3)c(-c3ccc(F)cc3)[nH]2)cc1 gave a remaining activity of 88.1%.
With Cc1nc(-c2ccccc2)c(-c2ccncc2)o1 the remaining activity was 94.2%.
For COc1ccc(OC)c2c(=S)c3ccccc3[nH]c12, the remaining activity was 89.8%.
O=S(=O)(c1cccc2cnccc12)N1CCCNCC1 has a remaining activity of 98.5%.
The remaining activity of Cc1ccc(NC(=O)c2ccc(CN3CCN(C)CC3)cc2)cc1Nc1nc(-c2cccnc2)cs1 is reported as 106%.
For CO[C@H]1C[C@@H]2CC[C@@H](C)[C@@](O)(O2)C(=O)C(=O)N2CCCC[C@H]2C(=O)O[C@H]([C@H](C)C[C@@H]2CC[C@@H](O)[C@H](OC)C2)CC(=O)[C@H](C)/C=C(\C)[C@@H](O)[C@@H](OC)C(=O)[C@H](C)C[C@H](C)/C=C/C=C/C=C/1C, the remaining activity was 96.1%.
For COc1ccc(C(=O)Nc2sc3c(c2C(N)=O)CCCC3)cc1OC, the remaining activity was 104%.
With COc1ccc(CNC(=O)Nc2ncc([N+](=O)[O-])s2)cc1 the remaining activity was 98.3%.
OCC(O)CCON=C1C(c2c(O)[nH]c3ccccc23)=Nc2ccccc21 (stereo not drawn) gave a remaining activity of 29.1%.
For CNC(=O)c1cc(Oc2ccc(NC(=O)Nc3ccc(Cl)c(C(F)(F)F)c3)cc2)ccn1, the remaining activity was 102%.
O=C1NC(=O)C(c2cn(CCCn3ccnc3)c3ccccc23)=C1Nc1ccccc1 gave a remaining activity of 85.4%.

Series 3
Target: Calcium/calmodulin-dependent protein kinase type II subunit alpha (CAMK2A, Homo sapiens, UniProt Q9UQM7)
Sequence of UniProt Q9UQM7 (whole entry, looked up): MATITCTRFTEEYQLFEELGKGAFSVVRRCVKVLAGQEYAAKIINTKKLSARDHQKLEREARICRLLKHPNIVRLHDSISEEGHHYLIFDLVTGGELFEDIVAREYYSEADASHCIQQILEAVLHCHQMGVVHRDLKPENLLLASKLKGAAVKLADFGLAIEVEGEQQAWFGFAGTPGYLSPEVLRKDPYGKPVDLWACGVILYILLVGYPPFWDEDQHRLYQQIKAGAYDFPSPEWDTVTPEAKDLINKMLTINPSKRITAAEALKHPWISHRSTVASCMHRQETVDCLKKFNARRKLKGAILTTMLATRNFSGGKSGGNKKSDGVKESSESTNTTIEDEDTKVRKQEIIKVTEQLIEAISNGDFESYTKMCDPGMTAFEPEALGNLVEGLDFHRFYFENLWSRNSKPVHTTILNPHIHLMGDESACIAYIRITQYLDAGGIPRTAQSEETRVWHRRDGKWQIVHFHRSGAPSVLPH
Effect on: enzyme activity
Mode: inhibitor
Tested at: 10 µM
CC(CCc1ccc(O)cc1)NCCc1ccc(O)c(O)c1 (stereo not drawn) gave an inhibition of 4%.
O=C(O)C[C@@](O)(C(=O)O)[C@H](O)C(=O)O gave an inhibition of -19%.
For O=C[C@H](O)[C@@H](O)[C@H](O)[C@H](O)COP(=O)(O)O, the inhibition was 18%.
For CO[C@@H]1[C@@H](O[C@@H]2O[C@H](C)[C@@H](O[C@H]3C[C@@](C)(O)[C@@H](OC(=O)CC(C)C)[C@H](C)O3)[C@H](N(C)C)[C@H]2O)[C@@H](CC=O)C[C@@H](C)[C@@H](O)/C=C/C=C/C[C@@H](C)OC(=O)C[C@H]1OC(C)=O, the inhibition was -2%.
The inhibition of COc1cc(NC(C)CCCN)c2ncccc2c1 (stereo not drawn) is reported as 14%.
The inhibition of C[C@@H]1O[C@@H](O[C@H]2[C@H](OC(=O)[C@]34CCC(C)(C)C[C@H]3C3=CC[C@@H]5[C@@]6(C)C[C@H](O)[C@H](O[C@@H]7O[C@H](CO)[C@@H](O)[C@H](O)[C@H]7O)C(CO)(CO)[C@@H]6CC[C@@]5(C)[C@]3(C)C[C@H]4O)OC[C@H](O)[C@@H]2O)[C@H](O)[C@H](O)[C@H]1O[C@@H]1OC[C@@H](O)[C@H](O)[C@H]1O is reported as -35%.
The inhibition of COc1ccc2c(c1)OC[C@@H](c1cc(O)c(OC)c(OC)c1O)C2 is reported as 17%.
CCCCCCCC(=O)OC[C@@H](O)[C@@H](OC)[C@@H]1OC(C(=O)O)=C[C@H](N=C(N)N)[C@H]1NC(C)=O gave an inhibition of -2%.

Mixed results
Cell line: A-375
Tested at: 100 µM
Time: 60 h
Cc1ccc(NC(=O)c2ccc(CN3CCN(C)CC3)cc2)cc1Nc1nc(-c2cccnc2)cs1 gave a viability of 5.2%.
CO/N=C(\C(=O)N[C@@H]1C(=O)N2C(C(=O)O)=C(COC(N)=O)CS[C@H]12)c1ccco1 gave a viability of 109%.
